Measured values collected from several papers.
A part holds a random share of what one study measured. Changes are numbered by the printed parent chain.
Sequence of UniProt P19784 (whole entry, looked up): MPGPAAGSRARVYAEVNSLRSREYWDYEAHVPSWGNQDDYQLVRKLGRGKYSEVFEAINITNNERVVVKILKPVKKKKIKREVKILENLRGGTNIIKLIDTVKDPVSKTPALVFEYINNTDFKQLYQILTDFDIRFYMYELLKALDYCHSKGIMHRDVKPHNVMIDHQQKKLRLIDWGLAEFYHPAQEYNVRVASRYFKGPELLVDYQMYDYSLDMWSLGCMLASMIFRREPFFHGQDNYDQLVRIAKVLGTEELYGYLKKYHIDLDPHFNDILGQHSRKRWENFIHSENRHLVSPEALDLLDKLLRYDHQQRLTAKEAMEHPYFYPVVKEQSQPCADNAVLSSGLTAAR
Sequence of UniProt Q86YV6 (whole entry, looked up): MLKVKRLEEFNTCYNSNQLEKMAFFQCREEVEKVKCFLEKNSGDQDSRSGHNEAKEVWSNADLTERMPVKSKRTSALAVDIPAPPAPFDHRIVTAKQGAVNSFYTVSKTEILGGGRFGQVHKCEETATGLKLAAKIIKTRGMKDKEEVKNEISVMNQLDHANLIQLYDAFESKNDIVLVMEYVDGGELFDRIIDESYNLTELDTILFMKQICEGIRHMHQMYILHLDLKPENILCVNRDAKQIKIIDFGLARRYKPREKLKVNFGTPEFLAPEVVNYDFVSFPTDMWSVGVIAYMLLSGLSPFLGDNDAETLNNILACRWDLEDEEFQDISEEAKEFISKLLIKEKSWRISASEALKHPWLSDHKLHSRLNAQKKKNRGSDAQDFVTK
Sequence of UniProt Q9H2K8 (whole entry, looked up): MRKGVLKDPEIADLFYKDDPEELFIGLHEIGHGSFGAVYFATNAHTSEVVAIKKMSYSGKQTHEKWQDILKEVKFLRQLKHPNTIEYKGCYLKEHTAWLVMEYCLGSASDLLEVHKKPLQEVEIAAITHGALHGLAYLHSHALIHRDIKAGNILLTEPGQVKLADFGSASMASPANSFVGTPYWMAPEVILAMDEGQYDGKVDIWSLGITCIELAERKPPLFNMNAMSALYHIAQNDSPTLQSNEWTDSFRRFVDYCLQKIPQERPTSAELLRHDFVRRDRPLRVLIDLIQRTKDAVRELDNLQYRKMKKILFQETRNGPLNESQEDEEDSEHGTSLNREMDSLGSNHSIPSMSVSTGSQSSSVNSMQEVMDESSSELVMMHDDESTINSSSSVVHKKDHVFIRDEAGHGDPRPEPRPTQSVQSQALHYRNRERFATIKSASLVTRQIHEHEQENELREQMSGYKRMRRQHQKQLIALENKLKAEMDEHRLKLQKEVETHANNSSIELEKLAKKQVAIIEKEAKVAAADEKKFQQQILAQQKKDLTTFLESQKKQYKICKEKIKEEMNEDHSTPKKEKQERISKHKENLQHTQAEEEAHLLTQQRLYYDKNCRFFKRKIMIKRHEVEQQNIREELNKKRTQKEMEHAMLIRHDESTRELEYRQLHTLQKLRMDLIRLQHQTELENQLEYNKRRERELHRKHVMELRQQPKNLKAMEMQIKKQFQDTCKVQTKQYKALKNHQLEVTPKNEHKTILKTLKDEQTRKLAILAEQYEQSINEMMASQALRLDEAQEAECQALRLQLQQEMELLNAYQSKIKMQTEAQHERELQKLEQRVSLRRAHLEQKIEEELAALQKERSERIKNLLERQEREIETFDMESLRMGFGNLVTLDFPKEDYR

Sample 1
Target: Centromere-binding protein 1, full length, His-tagged (CBF1, Saccharomyces cerevisiae, UniProt P17106, residues 1-351)
Sequence of UniProt P17106 (whole entry, looked up): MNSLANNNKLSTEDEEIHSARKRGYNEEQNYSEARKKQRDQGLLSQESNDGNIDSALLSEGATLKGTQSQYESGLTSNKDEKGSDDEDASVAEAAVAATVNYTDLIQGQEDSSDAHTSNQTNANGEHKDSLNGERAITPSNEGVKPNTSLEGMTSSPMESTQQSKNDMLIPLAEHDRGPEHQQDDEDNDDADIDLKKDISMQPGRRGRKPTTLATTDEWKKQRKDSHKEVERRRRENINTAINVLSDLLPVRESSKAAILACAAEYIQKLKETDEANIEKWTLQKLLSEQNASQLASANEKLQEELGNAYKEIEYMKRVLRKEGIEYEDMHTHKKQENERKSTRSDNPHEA
Technique: competition protein-binding microarray
Molecule type: double-stranded DNA, one strand shown
Medium: in vitro
Tested at: 2 µM
Notes: whole 60-bp probe, lowest competitor level
Together with: Pho4 competitor, 0.05 µM
Reading: higher = stronger binding
Shared flanks, not repeated: … GTCTTGATTCGCTTGACGCTGCTG
With `TGTACTCGGTCAACACACGTGCACAGAGCACCTACT` the fluorescence intensity was 933 a.u.
With `CGTCCTAGTGATTTTCACGTGGGGTCCATGAGGAAG` the fluorescence intensity was 686 a.u.
With `GTCTTGTCTCATTGTGTCGTGGGTGTCCCCACTTCA` the fluorescence intensity was 85.2 a.u.
`CTTCTGTAAATTTGTCACTGCACTTGACGCGCCCCG` gave a fluorescence intensity of 92.9 a.u.
The fluorescence intensity of `CTGAACAATATGTACATCGTGTCGGTAGAGCTGGTA` is reported as 65.2 a.u.
`AAACTGTGTATGTTACACGTGAAGCGAGGCTTGGAA` gave a fluorescence intensity of 687 a.u.
`CACTGTAGATGAACACACACTAAACGACAATAAGAC` has a fluorescence intensity of 77.4 a.u.
The fluorescence intensity of `GGCCCCTAGATCCTGCTCGTGAACGATGGACTCGGC` is reported as 62.8 a.u.

Sample 2
SMILES: CO[C@H]1CC[C@H](CNc2ccc(S(=O)(=O)NC(=O)c3ccc(N4CCN(CC5=C(c6ccc(Cl)cc6)CC(C)(C)CC5)CC4)cc3Oc3cnc4[nH]ccc4c3)cc2[N+](=O)[O-])CC1
Effect on: cell-free assay
Technique: competition with immobilised ligand
Tested at: 1 µM
For MET (Homo sapiens, UniProt P08581, Y1235D): remaining binding read 92%.
The remaining binding was 98% (MYLK4 (Homo sapiens, UniProt Q86YV6)).
It gave 100% for remaining binding (CSNK2A2 (Homo sapiens, UniProt P19784)).
It gave 65% for remaining binding (EGFR (Homo sapiens, UniProt P00533, del747-750/T751S)).
TAOK3 (Homo sapiens, UniProt Q9H2K8) — remaining binding: 87%.

Sample 3
Target: Wee1-like protein kinase (WEE1, Homo sapiens, UniProt P30291)
Sequence of UniProt P30291 (whole entry, looked up): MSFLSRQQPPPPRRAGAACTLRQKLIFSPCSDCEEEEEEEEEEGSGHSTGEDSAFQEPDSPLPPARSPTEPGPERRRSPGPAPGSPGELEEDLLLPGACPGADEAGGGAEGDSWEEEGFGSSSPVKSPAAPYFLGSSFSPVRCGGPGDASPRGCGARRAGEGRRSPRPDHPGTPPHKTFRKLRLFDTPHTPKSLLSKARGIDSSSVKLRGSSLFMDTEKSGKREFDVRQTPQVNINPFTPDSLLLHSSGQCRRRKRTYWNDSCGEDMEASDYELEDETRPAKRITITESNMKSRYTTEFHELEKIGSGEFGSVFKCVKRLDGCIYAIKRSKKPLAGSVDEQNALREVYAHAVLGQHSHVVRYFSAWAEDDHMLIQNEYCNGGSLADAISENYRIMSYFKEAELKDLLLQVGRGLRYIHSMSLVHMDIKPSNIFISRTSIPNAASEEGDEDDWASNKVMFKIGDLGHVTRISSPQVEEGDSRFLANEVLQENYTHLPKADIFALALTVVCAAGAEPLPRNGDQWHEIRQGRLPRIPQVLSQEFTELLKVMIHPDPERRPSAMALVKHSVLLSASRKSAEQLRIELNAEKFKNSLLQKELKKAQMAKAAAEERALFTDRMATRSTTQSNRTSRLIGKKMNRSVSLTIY
Effect on: enzyme activity
Action: inhibitor
Tested at: 0.5 µM
Relative to: control
For `OCC(O)CCON=C1C(c2c(O)[nH]c3ccccc23)=Nc2ccccc21` (stereo not shown), the remaining activity was 82%.
`Nc1ccc2ncnc(NCCc3ccc(Oc4ccccc4)cc3)c2c1` gave a remaining activity of 86.2%.
`COc1ccc(OC)c2c(=S)c3ccccc3[nH]c12` has a remaining activity of 102%.
For `CO[C@H]1C[C@@H]2CC[C@@H](C)[C@@](O)(O2)C(=O)C(=O)N2CCCC[C@H]2C(=O)O[C@H]([C@H](C)C[C@@H]2CC[C@@H](O)[C@H](OC)C2)CC(=O)[C@H](C)/C=C(\C)[C@@H](O)[C@@H](OC)C(=O)[C@H](C)C[C@H](C)/C=C/C=C/C=C/1C`, the remaining activity was 93.3%.
For `COc1ccc(CNC(=O)Nc2ncc([N+](=O)[O-])s2)cc1`, the remaining activity was 95.2%.
With `O=S(=O)(c1cccc2cnccc12)N1CCCNCC1` the remaining activity was 99.9%.
For `COc1ccc(C(=O)Nc2sc3c(c2C(N)=O)CCCC3)cc1OC`, the remaining activity was 92.3%.
`O=c1c2ccccc2[nH]c(=S)n1CCN1CCC(=C(c2ccc(F)cc2)c2ccc(F)cc2)CC1` gave a remaining activity of 93%.
`NCCNc1ncc(C(N)=O)c(Nc2cccc(C(F)(F)F)c2)n1` gave a remaining activity of 82%.
`CNC(=O)c1cc(Oc2ccc(NC(=O)Nc3ccc(Cl)c(C(F)(F)F)c3)cc2)ccn1` has a remaining activity of 103%.

Sample 4
Target: ABI1, truncated, D143A, DHFR fusion (Arabidopsis thaliana)
Technique: DHFR PCA, deep sequencing
Medium: yeast
Notes: methotrexate growth selection, single substitutions
Together with: (+)-ABA 0.11 µM
Relative to: wild-type fitted maximum
Reading: higher = stronger binding
Parent: PYL1, truncated, DHFR fusion (Arabidopsis thaliana); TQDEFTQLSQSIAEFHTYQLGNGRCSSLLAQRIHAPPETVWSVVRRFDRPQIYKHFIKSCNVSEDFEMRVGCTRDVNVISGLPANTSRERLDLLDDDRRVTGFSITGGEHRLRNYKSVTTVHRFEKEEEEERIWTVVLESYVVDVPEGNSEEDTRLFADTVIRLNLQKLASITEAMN; partner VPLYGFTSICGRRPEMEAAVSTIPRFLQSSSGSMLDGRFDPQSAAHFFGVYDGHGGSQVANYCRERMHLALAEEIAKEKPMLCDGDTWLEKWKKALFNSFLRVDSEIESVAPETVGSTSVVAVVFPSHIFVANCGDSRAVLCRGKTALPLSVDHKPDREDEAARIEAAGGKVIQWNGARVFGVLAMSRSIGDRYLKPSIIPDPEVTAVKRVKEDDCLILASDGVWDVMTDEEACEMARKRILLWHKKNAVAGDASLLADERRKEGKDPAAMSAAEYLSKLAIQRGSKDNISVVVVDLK
`L28G` — result for “relative binding score”: 3.43%.
For `I133C`, “relative binding score” read 53.9%.
`V62H`: “relative binding score” 1.26%.
Under “relative binding score”, `D75N` is recorded as 31.4%.
`R46Y`: “relative binding score” -6.52%.
Under “relative binding score”, `I12S` is recorded as 0.833%.
Under “relative binding score”, `R99A` is recorded as -11.5%.
`Y18R` — result for “relative binding score”: 3.16%.

Repeated from above (sample 1):
With `TGTACTCGGTCAACACACGTGCACAGAGCACCTACT` the fluorescence intensity was 933 a.u.
With `CGTCCTAGTGATTTTCACGTGGGGTCCATGAGGAAG` the fluorescence intensity was 686 a.u.
With `GTCTTGTCTCATTGTGTCGTGGGTGTCCCCACTTCA` the fluorescence intensity was 85.2 a.u.
`CTTCTGTAAATTTGTCACTGCACTTGACGCGCCCCG` gave a fluorescence intensity of 92.9 a.u.
The fluorescence intensity of `CTGAACAATATGTACATCGTGTCGGTAGAGCTGGTA` is reported as 65.2 a.u.
